Assay results gathered from unrelated publications.
Protocols differ between the studies behind these lines. Several values in a cell are separate wells, animals, samples, runs or records.
SMARCA2: SWI/SNF-related matrix-associated actin-dependent regulator of chromatin subfamily A member 2 (SMARCA2, Homo sapiens, UniProt P51531)
Sequence of UniProt P51531 (whole entry, looked up): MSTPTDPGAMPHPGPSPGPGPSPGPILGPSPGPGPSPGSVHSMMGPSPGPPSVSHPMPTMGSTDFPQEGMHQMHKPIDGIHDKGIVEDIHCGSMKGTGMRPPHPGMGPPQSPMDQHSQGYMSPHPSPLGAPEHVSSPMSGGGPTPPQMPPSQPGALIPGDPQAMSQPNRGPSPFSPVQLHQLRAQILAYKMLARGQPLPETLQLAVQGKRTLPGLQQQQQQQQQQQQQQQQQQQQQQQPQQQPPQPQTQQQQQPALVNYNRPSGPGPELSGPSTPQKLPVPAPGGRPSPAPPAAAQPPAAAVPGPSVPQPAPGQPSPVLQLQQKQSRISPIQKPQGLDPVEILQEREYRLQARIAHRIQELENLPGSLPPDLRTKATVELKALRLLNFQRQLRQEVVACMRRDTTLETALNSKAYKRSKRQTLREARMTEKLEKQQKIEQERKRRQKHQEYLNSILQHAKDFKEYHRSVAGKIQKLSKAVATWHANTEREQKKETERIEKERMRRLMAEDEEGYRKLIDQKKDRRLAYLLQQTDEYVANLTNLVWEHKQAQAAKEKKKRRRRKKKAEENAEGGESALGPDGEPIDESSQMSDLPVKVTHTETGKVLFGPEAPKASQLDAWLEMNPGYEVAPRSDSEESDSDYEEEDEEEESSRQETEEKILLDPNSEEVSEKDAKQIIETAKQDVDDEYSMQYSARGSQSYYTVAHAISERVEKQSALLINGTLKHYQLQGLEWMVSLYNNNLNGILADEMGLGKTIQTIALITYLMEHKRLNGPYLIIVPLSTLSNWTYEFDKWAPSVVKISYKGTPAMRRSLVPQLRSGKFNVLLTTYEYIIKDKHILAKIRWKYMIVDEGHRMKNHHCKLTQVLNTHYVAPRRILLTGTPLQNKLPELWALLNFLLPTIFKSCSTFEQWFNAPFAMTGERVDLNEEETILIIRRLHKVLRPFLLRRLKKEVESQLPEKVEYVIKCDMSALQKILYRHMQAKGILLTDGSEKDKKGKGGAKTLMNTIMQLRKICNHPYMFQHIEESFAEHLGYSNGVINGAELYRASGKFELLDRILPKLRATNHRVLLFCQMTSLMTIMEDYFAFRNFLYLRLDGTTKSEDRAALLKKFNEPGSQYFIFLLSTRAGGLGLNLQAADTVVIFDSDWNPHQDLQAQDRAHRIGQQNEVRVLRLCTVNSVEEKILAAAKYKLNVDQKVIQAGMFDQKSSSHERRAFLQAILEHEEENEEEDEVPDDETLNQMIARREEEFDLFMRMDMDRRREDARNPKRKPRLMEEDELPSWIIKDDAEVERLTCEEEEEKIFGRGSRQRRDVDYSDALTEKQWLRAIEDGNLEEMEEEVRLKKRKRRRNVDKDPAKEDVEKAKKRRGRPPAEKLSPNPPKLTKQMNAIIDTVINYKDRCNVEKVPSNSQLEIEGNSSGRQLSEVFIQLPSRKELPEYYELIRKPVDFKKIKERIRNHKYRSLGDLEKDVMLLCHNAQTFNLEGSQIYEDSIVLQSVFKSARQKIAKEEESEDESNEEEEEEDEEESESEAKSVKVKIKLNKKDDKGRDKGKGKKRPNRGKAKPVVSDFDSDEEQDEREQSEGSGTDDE
HDAC6 ZnF-UBD domain: Protein deacetylase HDAC6, ZnF-UBD domain (HDAC6, Homo sapiens, UniProt Q9UBN7)
Sequence of UniProt Q9UBN7 (whole entry, looked up): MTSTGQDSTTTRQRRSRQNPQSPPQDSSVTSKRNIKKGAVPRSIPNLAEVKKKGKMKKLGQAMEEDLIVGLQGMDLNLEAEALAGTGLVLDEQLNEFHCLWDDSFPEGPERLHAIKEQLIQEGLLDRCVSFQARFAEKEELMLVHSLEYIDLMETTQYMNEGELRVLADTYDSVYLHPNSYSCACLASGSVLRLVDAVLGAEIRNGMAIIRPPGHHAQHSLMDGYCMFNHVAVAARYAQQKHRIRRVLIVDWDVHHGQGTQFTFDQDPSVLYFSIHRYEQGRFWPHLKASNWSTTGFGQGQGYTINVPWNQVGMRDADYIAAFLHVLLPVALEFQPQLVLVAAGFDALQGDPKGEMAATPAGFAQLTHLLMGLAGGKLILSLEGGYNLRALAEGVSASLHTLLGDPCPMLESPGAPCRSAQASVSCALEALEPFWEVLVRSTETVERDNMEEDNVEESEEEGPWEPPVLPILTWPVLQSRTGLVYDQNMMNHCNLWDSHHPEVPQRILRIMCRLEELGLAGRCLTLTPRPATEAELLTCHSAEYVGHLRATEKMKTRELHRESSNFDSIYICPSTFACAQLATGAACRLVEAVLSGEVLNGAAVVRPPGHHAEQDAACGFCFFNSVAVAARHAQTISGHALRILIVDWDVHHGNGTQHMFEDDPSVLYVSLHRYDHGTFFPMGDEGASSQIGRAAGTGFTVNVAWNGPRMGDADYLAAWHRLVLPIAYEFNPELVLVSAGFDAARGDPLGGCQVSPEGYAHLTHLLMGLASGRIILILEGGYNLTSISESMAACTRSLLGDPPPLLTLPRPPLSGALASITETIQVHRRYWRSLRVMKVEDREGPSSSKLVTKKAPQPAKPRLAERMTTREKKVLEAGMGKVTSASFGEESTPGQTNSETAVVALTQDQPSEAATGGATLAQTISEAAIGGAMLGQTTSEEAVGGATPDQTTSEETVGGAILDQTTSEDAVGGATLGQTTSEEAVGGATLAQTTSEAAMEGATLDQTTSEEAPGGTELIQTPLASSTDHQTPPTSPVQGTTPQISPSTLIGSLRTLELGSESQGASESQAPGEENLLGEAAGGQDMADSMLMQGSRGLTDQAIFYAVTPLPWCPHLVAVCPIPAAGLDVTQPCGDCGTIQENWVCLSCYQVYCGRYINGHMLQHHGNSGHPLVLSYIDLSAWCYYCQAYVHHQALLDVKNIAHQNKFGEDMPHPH
Sequence of UniProt O14965 (whole entry, looked up): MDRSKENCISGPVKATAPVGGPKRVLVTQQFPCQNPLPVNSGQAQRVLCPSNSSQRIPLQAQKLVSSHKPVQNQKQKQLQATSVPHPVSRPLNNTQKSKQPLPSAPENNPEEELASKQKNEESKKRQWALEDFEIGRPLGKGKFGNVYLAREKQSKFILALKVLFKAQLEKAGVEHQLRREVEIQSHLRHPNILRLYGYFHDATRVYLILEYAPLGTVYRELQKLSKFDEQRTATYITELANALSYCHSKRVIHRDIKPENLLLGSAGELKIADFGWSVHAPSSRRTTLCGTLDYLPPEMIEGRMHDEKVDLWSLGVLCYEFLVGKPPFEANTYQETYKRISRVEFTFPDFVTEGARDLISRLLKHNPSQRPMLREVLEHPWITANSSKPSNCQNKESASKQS

CC[C@@H]1[C@H](F)C(=O)N[C@@H]1COc1nccc2cc(C(N)=O)c(OC)cc12 — IC50 (Aurora kinase A (AURKA, Homo sapiens, UniProt O14965); ATP-site binding, ActivX KiNativ profiling; THP-1 cell lysate; Lys2 AurA probe site): 3.7 µM
Nc1nnc(-c2ccccc2O)cc1N1CCN(Cc2ccc(OCCOCCNc3cccc4c3C(=O)N(C3CCC(=O)NC3=O)C4=O)c(F)c2)CC1 (stereo not shown) — DC50 (SMARCA2; degrader, immunoblot; NCI-H1975; 96 h): 0.297 µM
Cc1nc(N)nc2c1C(=O)N[C@@H](c1ccc(F)cc1-c1cccc(OCCF)n1)C2 — Ki (binding, radioligand competition; mouse brain homogenate; added: [3H]HSP990 0.6 nM): 0.21 µM
O=C(O)Cc1cccc2cccnc12 — Kd (HDAC6 ZnF-UBD domain): > 1000 µM
CC(C)c1cc(C(=O)N2Cc3ccc(CN4CCN(C)CC4)cc3C2)c(O)cc1O — Ki (binding, radioligand competition; mouse brain homogenate; added: [3H]HSP990 0.6 nM): 0.018 µM
CC(=O)N[C@H]1[C@H](O[C@H]2[C@H](O)[C@@H](NC(C)=O)[C@H](O[C@H]3[C@H](O)[C@@H](NC(C)=O)[C@H](O[C@H]4[C@H](O)[C@@H](NC(C)=O)C(O)O[C@@H]4CO)O[C@@H]3CO)O[C@@H]2CO)O[C@H](CO)[C@@H](O[C@@H]2O[C@H](CO)[C@@H](O[C@@H]3O[C@H](CO)[C@@H](O[C@@H]4O[C@H](CO)[C@@H](O[C@@H]5O[C@H](CO)[C@@H](O)[C@H](O)[C@H]5NC(C)=O)[C@H](O)[C@H]4NC(C)=O)[C@H](O)[C@H]3NC(C)=O)[C@H](O)[C@H]2NC(C)=O)[C@@H]1O (stereo partly shown) — Ki (LCO binding, radioligand competition binding; membrane fractions; added: radiolabelled LCO-V(C18:1,NMe)): 0.0058 µM and 0.017 µM
O=C(O)Cn1cnc2ccccc2c1=O — Kd (HDAC6 ZnF-UBD domain): > 1000 µM
Nc1nnc(-c2ccccc2O)cc1N1CCN(Cc2ccc(N3CCN(CCOc4cccc5c4C(=O)N(C4CCC(=O)NC4=O)C5=O)CC3)c(F)c2)CC1 (stereo not shown) — DC50 (SMARCA2; degrader, immunoblot; H1792 SMARCA4 wild-type; 24 h): 0.0076 µM
CC(=O)N[C@H]1[C@H](O[C@H]2[C@H](O)[C@@H](NC(C)=O)C(O)O[C@@H]2CO)O[C@H](CO)[C@@H](O[C@@H]2O[C@H](CO)[C@@H](O[C@@H]3O[C@H](CO)[C@@H](O)[C@H](O)[C@H]3NC(C)=O)[C@H](O)[C@H]2NC(C)=O)[C@@H]1O (stereo partly shown) — Ki (LCO binding, radioligand competition binding; membrane fractions; added: radiolabelled LCO-V(C18:1,NMe)): 0.0308 µM and 0.037 µM
O=C(O)CCn1cccn1 — Kd (HDAC6 ZnF-UBD domain): > 1000 µM

Repeated from above:
O=C(O)Cc1cccc2cccnc12 — Kd (HDAC6 ZnF-UBD domain): > 1000 µM
